# Measured values of several laboratories.
# Protocols differ between the studies behind these lines. “And” joins repeats or separate records; there may be more than shown. ± marks the error that the study gave.
# OfChi-h: Chitinase (OfChi-h, Ostrinia furnacalis, UniProt Q4AE59)
# TACR3: Neuromedin-K receptor (TACR3, Homo sapiens, UniProt P29371)
# UniProt P29371, sequence (whole entry, looked up): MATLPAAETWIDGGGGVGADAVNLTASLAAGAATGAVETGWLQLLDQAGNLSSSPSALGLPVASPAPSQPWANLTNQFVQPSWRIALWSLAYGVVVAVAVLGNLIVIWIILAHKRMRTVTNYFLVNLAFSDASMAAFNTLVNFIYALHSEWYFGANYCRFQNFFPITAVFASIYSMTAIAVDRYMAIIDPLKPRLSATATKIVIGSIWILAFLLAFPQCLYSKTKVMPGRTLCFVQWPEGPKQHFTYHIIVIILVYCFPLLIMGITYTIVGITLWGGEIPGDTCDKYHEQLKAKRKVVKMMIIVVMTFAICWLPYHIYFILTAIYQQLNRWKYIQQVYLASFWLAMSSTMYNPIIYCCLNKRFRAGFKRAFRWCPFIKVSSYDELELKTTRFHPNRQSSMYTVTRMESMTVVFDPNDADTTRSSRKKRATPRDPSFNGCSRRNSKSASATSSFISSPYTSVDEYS
# TDP1: Tyrosyl-DNA phosphodiesterase 1 (TDP1, Homo sapiens, UniProt Q9NUW8)
# UniProt Q9NUW8, sequence (whole entry, looked up): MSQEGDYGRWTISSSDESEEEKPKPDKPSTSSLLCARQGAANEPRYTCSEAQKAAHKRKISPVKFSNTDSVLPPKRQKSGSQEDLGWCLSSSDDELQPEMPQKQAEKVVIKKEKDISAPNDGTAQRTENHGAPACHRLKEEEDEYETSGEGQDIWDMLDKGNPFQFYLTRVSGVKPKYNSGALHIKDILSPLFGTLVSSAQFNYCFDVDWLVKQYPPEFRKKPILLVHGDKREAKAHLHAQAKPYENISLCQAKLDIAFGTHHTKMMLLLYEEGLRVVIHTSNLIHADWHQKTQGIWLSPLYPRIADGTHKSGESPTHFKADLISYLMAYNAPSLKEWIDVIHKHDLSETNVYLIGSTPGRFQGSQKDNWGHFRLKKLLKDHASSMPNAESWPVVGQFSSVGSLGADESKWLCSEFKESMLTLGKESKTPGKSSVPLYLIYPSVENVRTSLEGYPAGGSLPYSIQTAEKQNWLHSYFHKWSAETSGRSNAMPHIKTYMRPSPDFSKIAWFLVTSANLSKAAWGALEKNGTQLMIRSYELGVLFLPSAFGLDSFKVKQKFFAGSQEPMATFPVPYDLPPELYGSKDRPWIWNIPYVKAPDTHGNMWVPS
# ppa: Inorganic pyrophosphatase (ppa, Escherichia coli, UniProt P0A7A9)
# UniProt P0A7A9, sequence (whole entry, looked up): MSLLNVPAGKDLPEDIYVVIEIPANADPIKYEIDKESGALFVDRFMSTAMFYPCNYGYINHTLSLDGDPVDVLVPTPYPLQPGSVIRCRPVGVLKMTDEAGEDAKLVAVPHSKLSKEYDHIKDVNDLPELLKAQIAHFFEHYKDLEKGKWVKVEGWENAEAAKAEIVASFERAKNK
# Tmem97: Sigma intracellular receptor 2 (Tmem97, Rattus norvegicus, UniProt Q5U3Y7)
# UniProt Q93009, sequence (whole entry, looked up): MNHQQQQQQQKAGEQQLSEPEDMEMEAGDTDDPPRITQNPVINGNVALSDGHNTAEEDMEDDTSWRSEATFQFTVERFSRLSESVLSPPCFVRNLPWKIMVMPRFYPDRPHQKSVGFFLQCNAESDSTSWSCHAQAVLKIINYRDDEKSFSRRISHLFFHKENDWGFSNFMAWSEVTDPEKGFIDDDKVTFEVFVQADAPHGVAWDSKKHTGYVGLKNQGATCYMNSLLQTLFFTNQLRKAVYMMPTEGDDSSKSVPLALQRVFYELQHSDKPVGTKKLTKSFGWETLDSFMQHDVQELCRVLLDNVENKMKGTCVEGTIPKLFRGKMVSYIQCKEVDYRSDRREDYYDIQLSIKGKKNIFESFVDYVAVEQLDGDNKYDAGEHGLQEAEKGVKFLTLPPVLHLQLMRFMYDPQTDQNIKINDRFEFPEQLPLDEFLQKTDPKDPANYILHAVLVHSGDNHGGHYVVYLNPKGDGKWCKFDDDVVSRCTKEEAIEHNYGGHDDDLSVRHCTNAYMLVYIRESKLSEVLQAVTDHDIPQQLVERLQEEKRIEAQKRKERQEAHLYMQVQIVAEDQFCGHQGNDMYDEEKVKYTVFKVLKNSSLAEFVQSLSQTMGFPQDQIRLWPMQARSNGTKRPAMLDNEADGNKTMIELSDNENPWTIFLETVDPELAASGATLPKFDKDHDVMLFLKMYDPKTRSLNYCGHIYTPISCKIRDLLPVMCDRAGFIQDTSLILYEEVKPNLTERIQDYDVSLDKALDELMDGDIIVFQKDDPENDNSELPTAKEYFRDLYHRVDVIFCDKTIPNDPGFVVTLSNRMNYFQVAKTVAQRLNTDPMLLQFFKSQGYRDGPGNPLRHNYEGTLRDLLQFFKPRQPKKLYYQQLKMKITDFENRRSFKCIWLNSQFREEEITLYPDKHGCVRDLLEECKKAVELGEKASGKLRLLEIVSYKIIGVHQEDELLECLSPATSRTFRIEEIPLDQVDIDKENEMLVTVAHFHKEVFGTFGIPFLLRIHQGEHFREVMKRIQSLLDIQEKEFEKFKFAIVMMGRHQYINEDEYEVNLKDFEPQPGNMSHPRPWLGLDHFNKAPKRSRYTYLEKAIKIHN
# UniProt Q5U3Y7, sequence (whole entry, looked up): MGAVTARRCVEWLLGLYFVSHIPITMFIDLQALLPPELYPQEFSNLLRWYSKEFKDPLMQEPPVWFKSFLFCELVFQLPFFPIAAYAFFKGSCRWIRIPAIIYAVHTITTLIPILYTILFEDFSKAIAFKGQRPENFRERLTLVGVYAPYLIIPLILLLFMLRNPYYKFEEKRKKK
# UniProt Q13639, sequence (whole entry, looked up): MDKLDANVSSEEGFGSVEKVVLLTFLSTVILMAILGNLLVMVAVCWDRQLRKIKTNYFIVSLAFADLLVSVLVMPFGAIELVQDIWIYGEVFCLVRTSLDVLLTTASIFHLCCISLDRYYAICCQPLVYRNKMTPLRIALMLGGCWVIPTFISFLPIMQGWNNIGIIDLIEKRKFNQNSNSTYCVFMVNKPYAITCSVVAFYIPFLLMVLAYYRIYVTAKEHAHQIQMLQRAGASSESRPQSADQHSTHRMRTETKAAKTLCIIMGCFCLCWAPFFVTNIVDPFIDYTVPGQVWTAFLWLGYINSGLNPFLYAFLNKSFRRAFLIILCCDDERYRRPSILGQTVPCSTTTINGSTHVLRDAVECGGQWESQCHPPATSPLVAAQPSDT
# UniProt Q9Y210, sequence (whole entry, looked up): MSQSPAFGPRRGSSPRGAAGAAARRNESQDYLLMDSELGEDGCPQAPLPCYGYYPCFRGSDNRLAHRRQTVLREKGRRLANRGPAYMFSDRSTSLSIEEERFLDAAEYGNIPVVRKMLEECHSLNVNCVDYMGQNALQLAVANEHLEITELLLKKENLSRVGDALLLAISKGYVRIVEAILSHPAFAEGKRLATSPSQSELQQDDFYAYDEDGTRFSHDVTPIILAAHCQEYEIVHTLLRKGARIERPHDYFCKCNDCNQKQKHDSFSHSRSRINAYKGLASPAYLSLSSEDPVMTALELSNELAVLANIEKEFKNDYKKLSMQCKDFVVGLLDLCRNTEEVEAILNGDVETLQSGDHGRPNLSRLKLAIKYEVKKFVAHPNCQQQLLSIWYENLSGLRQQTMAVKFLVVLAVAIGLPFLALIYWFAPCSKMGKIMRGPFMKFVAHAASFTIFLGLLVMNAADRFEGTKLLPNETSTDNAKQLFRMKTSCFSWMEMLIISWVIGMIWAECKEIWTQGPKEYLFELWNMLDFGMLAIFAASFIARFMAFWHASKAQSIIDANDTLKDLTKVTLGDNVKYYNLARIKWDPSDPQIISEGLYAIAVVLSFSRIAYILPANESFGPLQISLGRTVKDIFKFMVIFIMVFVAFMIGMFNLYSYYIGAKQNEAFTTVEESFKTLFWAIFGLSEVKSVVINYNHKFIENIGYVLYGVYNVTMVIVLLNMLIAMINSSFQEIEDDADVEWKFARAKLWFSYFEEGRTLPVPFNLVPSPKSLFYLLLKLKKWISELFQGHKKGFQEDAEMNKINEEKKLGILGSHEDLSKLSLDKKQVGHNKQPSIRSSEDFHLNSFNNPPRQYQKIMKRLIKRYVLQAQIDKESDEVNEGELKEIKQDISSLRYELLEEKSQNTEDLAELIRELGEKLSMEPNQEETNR
# UniProt P08912, sequence (whole entry, looked up): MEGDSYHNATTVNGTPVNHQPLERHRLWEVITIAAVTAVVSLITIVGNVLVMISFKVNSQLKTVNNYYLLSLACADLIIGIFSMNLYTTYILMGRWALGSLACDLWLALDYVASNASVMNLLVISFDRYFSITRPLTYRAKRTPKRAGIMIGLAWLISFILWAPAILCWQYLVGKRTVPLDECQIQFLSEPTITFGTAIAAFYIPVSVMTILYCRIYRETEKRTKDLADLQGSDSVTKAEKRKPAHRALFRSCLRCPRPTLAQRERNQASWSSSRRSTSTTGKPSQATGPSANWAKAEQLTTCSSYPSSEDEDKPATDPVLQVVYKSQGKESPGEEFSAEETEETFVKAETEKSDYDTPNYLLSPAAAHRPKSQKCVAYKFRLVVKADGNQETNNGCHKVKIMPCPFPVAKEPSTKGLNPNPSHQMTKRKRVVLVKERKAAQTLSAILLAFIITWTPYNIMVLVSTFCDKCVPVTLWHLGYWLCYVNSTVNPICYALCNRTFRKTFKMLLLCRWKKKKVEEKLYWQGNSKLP
# UniProt O75365, sequence (whole entry, unmodified, looked up): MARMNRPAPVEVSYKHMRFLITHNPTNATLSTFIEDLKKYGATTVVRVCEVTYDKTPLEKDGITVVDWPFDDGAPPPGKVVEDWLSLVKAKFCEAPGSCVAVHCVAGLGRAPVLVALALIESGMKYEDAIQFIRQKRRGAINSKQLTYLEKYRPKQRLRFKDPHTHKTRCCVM
# UniProt P24530, sequence (whole entry, looked up): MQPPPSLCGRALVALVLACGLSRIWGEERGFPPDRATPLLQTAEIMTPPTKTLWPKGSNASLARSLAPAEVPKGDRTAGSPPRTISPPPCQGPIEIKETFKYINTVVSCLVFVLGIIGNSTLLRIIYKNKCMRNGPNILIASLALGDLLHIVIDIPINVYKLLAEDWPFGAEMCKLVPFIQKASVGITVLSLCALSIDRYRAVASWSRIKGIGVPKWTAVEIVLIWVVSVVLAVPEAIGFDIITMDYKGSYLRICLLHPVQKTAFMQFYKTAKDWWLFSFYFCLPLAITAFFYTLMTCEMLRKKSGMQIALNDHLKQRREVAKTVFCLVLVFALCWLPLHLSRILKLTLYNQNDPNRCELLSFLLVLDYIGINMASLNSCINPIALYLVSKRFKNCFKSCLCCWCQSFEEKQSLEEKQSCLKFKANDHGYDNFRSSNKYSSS
SMILES,tested on,test,test system,conditions,scale,measurement,result
CN(C)c1nc(NCc2cccc(-c3ccccc3)c2)c(/N=N/c2ccc(Cl)cc2)c(N(C)C)n1,OfChi-h,"enzyme activity, inhibitor, fluorescence",,1 µM,,inhibition,88.9%
CCn1cc(C(=O)O)c(=O)c2c(N)c(F)c(NC3CCCCC3)cc21,"[Pyruvate dehydrogenase (acetyl-transferring)] kinase isozyme 3, mitochondrial (PDK3, Homo sapiens, UniProt Q15120)",kinase activity,,"0.1 µM, with: ATP at Km",,inhibition,10.3%
c1ccc(OC[C@H]2CN(CCN3CCc4ccccc43)CCO2)nc1,"5-hydroxytryptamine receptor 4 (HTR4, Homo sapiens, UniProt Q13639)",radioligand binding,,concentration not given,,inhibition,-2.4%
Oc1cc2c(cc1O)C(c1ccccc1)NCC2 (stereo not drawn),tyrosinase,"enzyme activity, inhibitor",,"100 µM, with: levodopa",,inhibition,25.2 ± 1.48%
C[Si](C)(C)C[C@H](CN)CC(=O)O,TACR3,"ligand displacement, radioligand",,250 µM,,inhibition,-7%
COC(=O)c1c(NC(=O)Cn2cnc([N+](=O)[O-])n2)sc2c1CCC(C)C2 (stereo not drawn),,"reporter mRNA translation, inhibitor, measured: Renilla luciferase mRNA",Trypanosoma cruzi cell extract,concentration not given,relative to: positive and negative controls,translation activity,113%
CC(C)Cn1c(SCC(=O)N2CCc3ccccc3C2)nc2cc(Cl)ccc2c1=O,"Muscarinic acetylcholine receptor M5 (CHRM5, Homo sapiens, UniProt P08912)","ligand displacement, radioligand",,10 µM,,inhibition,-2%
O=C(O)c1ccc(Nc2c(-c3ccccc3)nc3ccc(CON=Cc4cc5cccnc5s4)cn23)cc1 (mixture of isomers),TDP1,"enzyme activity, inhibitor",,"100 µM, unpurified compound",,inhibition,29.5%
CC1=NN(c2cccc(F)c2)C(=O)/C1=N\Nc1ccc(S(N)(=O)=O)cc1,bovine α-glucosidase,"enzyme activity, inhibitor, glucose oxidase",,"50 µg/mL, with: maltose",,inhibition,27.6%
COc1ccc2c(c1OC)C(=O)N(c1nc3ccccc3s1)C2,ppa,"inhibitor, counter-screen, coupling enzyme alone",,30 µM,,inhibition,-4%
Cc1cc(Cl)cc(-c2ccnc3cc(CN4C(=O)C5C(C4=O)C5(C)C)sc23)c1C[C@@H]1CNCCO1 (stereo partly drawn),"Ubiquitin carboxyl-terminal hydrolase 7 (USP7, Homo sapiens, UniProt Q93009)","enzyme activity, inhibitor",,5 µM,,inhibition,114%
O=C(CSc1nnc(-c2ccco2)c(-c2ccco2)n1)c1ccc(Cl)s1,ppa,"inhibitor, counter-screen, coupling enzyme alone",,30 µM,,inhibition,6.7%
CC(=O)O[C@@]1(C)CN(Cc2ccccc2)[C@H]2C[C@@H]1CC(=O)[C@@H]2C,Tmem97,"ligand displacement, radioligand",,1 µM,,inhibition,0%
Cn1ccc2cc(-n3c(=O)[nH]c4sc5c(c4c3=O)CCCC5)ccc21,"Endothelin receptor type B (EDNRB, Homo sapiens, UniProt P24530)",cell-free assay,,10 µM,,inhibition,-6%
[2H]C([2H])([18F])Oc1cc(C(=O)OCC2CCN(CCCC)CC2)ccc1N,,PET SRTM,"rhesus monkey, midbrain","baseline, unit not given",relative to: cerebellum,BPND,0.28 ± 0.13
O=C(O)c1ccc(Nc2c(-c3ccc(CON=Cc4ccc(-c5cnccn5)cc4)cc3)nc3cc(-c4ccccc4)ccn23)cc1,TDP1,"enzyme activity, inhibitor",,100 µM,,inhibition,102%
C[N+](C)(CCCN1c2ccccc2CCc2ccc(Cl)cc21)Cc1ccccc1,ppa,"inhibitor, counter-screen, coupling enzyme alone",,30 µM,,inhibition,51.5%
O=C(O)c1ccc(Nc2c(-c3ccccc3)nc3ccc(CON=Cc4[nH]ncc4Br)cn23)cc1,TDP1,"enzyme activity, inhibitor",,"100 µM, unpurified compound",,inhibition,-2%
CC(C)C[C@H](NC(=O)[C@H](Cc1ccc(O)cc1)NC(=O)[C@@H](CCCNC(=N)N)NC(=O)[C@@H](CO)NC(=O)[C@H](Cc1ccccc1)NC(=O)[C@H](CC1CCCCC1)NC(=O)[C@H](CC(=O)O)NC(=O)CN1CCN(CC(=O)O)CCN(CC(=O)O)CCN(CC(=O)O)CC1)C(=O)N[C@@H](Cc1c[nH]c2ccccc12)C(=O)N[C@@H](CO)C(=O)O [copper-64 labelled],,,"human, kidney","concentration not given, 3 h",,activity concentration,8590 Bq/mL and 6840 Bq/mL and 7000 Bq/mL and 5310 Bq/mL and 5630 Bq/mL and 4950 Bq/mL
CC(C)C[C@H](NC(=O)[C@@H](CCCCNC(=O)[C@@H](Cc1ccccc1)NC(=O)CCCCCNC(=O)CN1CCN(CC(=O)O)CCN(CC(=O)O)CCN(CC(=O)O)CC1)NC(=O)[C@H](Cc1ccc(O)cc1)NC(=O)[C@H](CO)NC(=O)[C@H](Cc1c[nH]c2ccccc12)NC(=O)[C@H](Cc1c[nH]cn1)NC(=O)[C@@H]1CCC(=O)N1)C(=O)N[C@@H](CCCNC(=N)N)C(=O)N1CCC[C@H]1C(=O)NCC(N)=O [indium-111 labelled],,,"female athymic nude mice, spleen","intravenous, 0.037 MBq, 2 h",,tissue uptake,0.1 ± 0.03 %ID/g
C=CC(=O)N1Cc2nc(-c3cc(-c4cc(Cl)cnc4Cl)c(F)cc3F)n(-c3ccncn3)c2C1,"Mitogen-activated protein kinase kinase kinase 21 (MAP3K21, Homo sapiens, UniProt Q5TCX8)","cell-free assay, inhibitor",,1 µM,,inhibition,1.1%
CN1CC[C@@H](COc2cnc(C#N)cc2-c2ccn3nc(NC(=O)C4CC4)cc3c2)C1,"Tribbles homolog 2 (TRIB2, Homo sapiens, UniProt Q92519)","enzyme activity, inhibitor",,1 µM,,inhibition,10%
CC1=NN(c2ccccc2F)C(=O)/C1=N\Nc1ccc(S(N)(=O)=O)cc1,bovine α-glucosidase,"enzyme activity, inhibitor, glucose oxidase",,"200 µg/mL, with: maltose",,inhibition,42.6%
CC(=O)C1=C(c2ccc(OC(F)F)cc2)N(C(C)=O)n2cnnc2S1,ppa,"inhibitor, counter-screen, coupling enzyme alone",,30 µM,,inhibition,33%
CN(C)CCCCCN(C)Cc1cc2ccccc2o1.Cl,,"reporter mRNA translation, inhibitor, measured: Renilla luciferase mRNA",Trypanosoma cruzi cell extract,concentration not given,relative to: positive and negative controls,translation activity,112%
Cc1ccc(C=NOCc2ccc(-c3nc4cc(-c5ccccc5)ccn4c3Nc3ccc(C(=O)O)cc3)cc2)cc1[N+](=O)[O-],TDP1,"enzyme activity, inhibitor",,"100 µM, unpurified compound",,inhibition,75.3%
CN(Cc1ccc(/C=C/C(=O)NO)cc1)CC12CC3CC(CC(C3)C1)C2,human 5-HT2C receptor,antagonist radioligand binding,,0.05 µM,,inhibition,-5%
N#CCn1cc(C=NOCc2ccc3nc(-c4ccccc4)c(Nc4ccc(C(=O)O)cc4)n3c2)c2ccccc21 (mixture of isomers),TDP1,"enzyme activity, inhibitor",,"100 µM, unpurified compound",,inhibition,77.8%
Oc1cc2c(cc1O)C(c1ccco1)NCC2 (stereo not drawn),tyrosinase,"enzyme activity, inhibitor",,"100 µM, with: levodopa",,inhibition,31.7 ± 2.26%
O=C(O)c1ccc(Nc2c(-c3ccccc3)nc3ccc(CON=Cc4cccn4-c4sc5c(c4C(=O)O)CCCC5)cn23)cc1,TDP1,"enzyme activity, inhibitor",,"100 µM, unpurified compound",,inhibition,73.6%
"CC(=O)C12NC(C)(C)CC1(C)C(=O)C1=C2c2c(c3c4n2C(C)(C)CC2=C4C4(CC(C)(C)NC(C)(C4)C2=O)CC3(C)C)C(=O)C(C)(C)N1 (single isomer, unassigned; (-))","Short transient receptor potential channel 6 (TRPC6, Homo sapiens, UniProt Q9Y210)","ion current, inhibitor, patch clamp",HEK-293T,10 µM,,inhibition,86.2%
O=C1c2sc(-c3ccc(N4CCC(CO)CC4)nc3F)nc2CCN1c1cccnc1,"Retinoic acid receptor alpha (RARA, Homo sapiens, UniProt P10276)","ligand displacement, radioligand",,1 µM,,inhibition,-7%
O=c1ccn([C@@H]2O[C@H](COP(=O)(O)CP(=O)(O)O)[C@@H](O)[C@H]2O)c(=S)[nH]1,"P2Y purinoceptor 14 (P2RY14, Homo sapiens, UniProt Q15391, V99A)","calcium mobilisation, agonist",cells with Gαqi5,receptor mutant V99A,,EC50,241 nM
COc1cc(C2NCCc3cc(O)c(O)cc32)cc(OC)c1OC (stereo not drawn),tyrosinase,"enzyme activity, inhibitor",,"100 µM, with: levodopa",,inhibition,13.4 ± 0.69%
Cc1nn(-c2cccc(N)c2)c(=O)c2cnc(Nc3ccc(N4CCNCC4)cc3)nc12,"Eukaryotic elongation factor 2 kinase (EEF2K, Homo sapiens, UniProt O00418)","enzyme activity, inhibitor",,,,IC50,> 10 µM
COc1cc(-c2cn(C)c(=O)c3cnccc23)cc(OC)c1CN(C)C,"Bromodomain-containing protein 4, BD1 (BRD4, Homo sapiens, UniProt O60885)",,,1 µM,,inhibition,-2.09%
C[Si]1(C[C@H](CN)CC(=O)O)CCCC1,Tmem97,"ligand displacement, radioligand",,70 µM,,inhibition,2%
C[N+](C)(C/C=C/CN1C(=O)c2ccccc2C1=O)CCCN1c2ccccc2CCc2ccc(Cl)cc21,ppa,"inhibitor, counter-screen, coupling enzyme alone",,30 µM,,inhibition,45.3%
Cc1cc(F)ccc1-c1cc(N2C[C@H]3COC(O)CN3C[C@H]2CO)ncc1N(C)C(=O)C(C)(C)c1cc(C(F)(F)F)cc(C(F)(F)F)c1 (stereo partly drawn),,,human liver microsomes,substrate depletion,,Vmax,76 pmol/min/mg
CN1CCN(Cc2ccc(-c3ccc(CO[C@H]4CCC[C@@H]4NC(=O)c4cc(-c5cnn(C)c5)cnc4N)cc3)cc2)CC1,"Phosphatidylinositol 4-phosphate 3-kinase C2 domain-containing subunit alpha (PIK3C2A, Homo sapiens, UniProt O00443)","enzyme activity, inhibitor",,0.1 µM,,inhibition,9%
CCC(=O)N(C)c1ccc(Cl)c(Cl)c1,TACR3,"ligand displacement, radioligand",,10 µM,,inhibition,< 10%
Cc1nc2c(F)cc(-c3nc(Nc4ccc(CNC(=O)CCCCCCC(=O)NO)cc4)ncc3F)cc2n1C(C)C,"Phosphatidylinositol 4,5-bisphosphate 3-kinase catalytic subunit alpha isoform, with p85 alpha (Pik3ca, Mus musculus, UniProt P42337, E545K)",enzyme activity,,"1 µM, p110α(E545K)/p85α)(m mouse",,inhibition,26%
C[N+](C)(CCCN1c2ccccc2CCc2ccc(Cl)cc21)CC(=O)c1ccccc1,ppa,"inhibitor, counter-screen, coupling enzyme alone",,30 µM,,inhibition,32.8%
CC(C)C(C)NC(=O)COC(=O)c1cc2c(s1)CCC2 (stereo not drawn),"Protein tyrosine phosphatase type IVA 3, with CNNM4 CBS domain (PTP4A3, Homo sapiens, UniProt O75365)","protein-protein interaction, HTRF",,10 µM,,inhibition,90.7 ± 2%
COc1ccc(OC)c(C2=Nn3c(nnc3C3CCCCC3)SC2)c1,ppa,"inhibitor, counter-screen, coupling enzyme alone",,30 µM,,inhibition,8.3%
O=C1c2sc(-c3ccc(N4CCC(F)C4)nc3F)nc2CCN1c1cccnc1 (stereo not drawn),"TAR DNA-binding protein 43, aggregated (TARDBP, Homo sapiens, UniProt Q13148)",radioligand binding,"homogenate, FTLD-TDP, type A","500 nM, with: [3H]ACI-19626",,inhibition,69.5% and 76.7%
O=C(CSc1nnc(-c2ccco2)c(-c2ccco2)n1)c1ccc(Br)cc1,"Uncharacterized protein (Trypanosoma brucei brucei, UniProt Q386Q8)","enzyme activity, inhibitor, coupled colorimetric",,"30 µM, with: E. coli pyrophosphatase coupling",,inhibition,30.7%
Cc1ccc(C=NOCc2ccc3nc(-c4ccccc4)c(Nc4ccc(C(=O)O)cc4)n3c2)cc1C (mixture of isomers),TDP1,"enzyme activity, inhibitor",,"100 µM, unpurified compound",,inhibition,22.7%
CN(C)C/C=C/C(=O)Nc1ccc2nc(NCCCCCN(C)C)nc(NCCCCCCN(C)C)c2c1,"Protein arginine N-methyltransferase 8 (PRMT8, Homo sapiens, UniProt Q9NR22)","enzyme activity, inhibitor, radiometric",,10 µM,,inhibition,51%
O=C(O)c1ccc(Nc2c(-c3ccccc3)nc3ccc(CON=Cc4cnc5ccccc5c4)cn23)cc1,TDP1,"enzyme activity, inhibitor",,"100 µM, unpurified compound",,inhibition,-0.1%
CN(C)c1nc(NCc2ccccc2F)c(/N=N/c2ccc(Cl)cc2)c(N(C)C)n1,OfChi-h,"enzyme activity, inhibitor, fluorescence",,1 µM,,inhibition,91.1%

# Repeated from above:
SMILES,tested on,test,test system,conditions,scale,measurement,result
CC(C)C[C@H](NC(=O)[C@@H](CCCCNC(=O)[C@@H](Cc1ccccc1)NC(=O)CCCCCNC(=O)CN1CCN(CC(=O)O)CCN(CC(=O)O)CCN(CC(=O)O)CC1)NC(=O)[C@H](Cc1ccc(O)cc1)NC(=O)[C@H](CO)NC(=O)[C@H](Cc1c[nH]c2ccccc12)NC(=O)[C@H](Cc1c[nH]cn1)NC(=O)[C@@H]1CCC(=O)N1)C(=O)N[C@@H](CCCNC(=N)N)C(=O)N1CCC[C@H]1C(=O)NCC(N)=O [indium-111 labelled],,,"female athymic nude mice, spleen","intravenous, 0.037 MBq, 2 h",,tissue uptake,0.1 ± 0.03 %ID/g
C=CC(=O)N1Cc2nc(-c3cc(-c4cc(Cl)cnc4Cl)c(F)cc3F)n(-c3ccncn3)c2C1,"Mitogen-activated protein kinase kinase kinase 21 (MAP3K21, Homo sapiens, UniProt Q5TCX8)","cell-free assay, inhibitor",,1 µM,,inhibition,1.1%
CN1CC[C@@H](COc2cnc(C#N)cc2-c2ccn3nc(NC(=O)C4CC4)cc3c2)C1,"Tribbles homolog 2 (TRIB2, Homo sapiens, UniProt Q92519)","enzyme activity, inhibitor",,1 µM,,inhibition,10%
CC1=NN(c2ccccc2F)C(=O)/C1=N\Nc1ccc(S(N)(=O)=O)cc1,bovine α-glucosidase,"enzyme activity, inhibitor, glucose oxidase",,"200 µg/mL, with: maltose",,inhibition,42.6%
CC(=O)C1=C(c2ccc(OC(F)F)cc2)N(C(C)=O)n2cnnc2S1,ppa,"inhibitor, counter-screen, coupling enzyme alone",,30 µM,,inhibition,33%
CN(C)CCCCCN(C)Cc1cc2ccccc2o1.Cl,,"reporter mRNA translation, inhibitor, measured: Renilla luciferase mRNA",Trypanosoma cruzi cell extract,concentration not given,relative to: positive and negative controls,translation activity,112%
Cc1ccc(C=NOCc2ccc(-c3nc4cc(-c5ccccc5)ccn4c3Nc3ccc(C(=O)O)cc3)cc2)cc1[N+](=O)[O-],TDP1,"enzyme activity, inhibitor",,"100 µM, unpurified compound",,inhibition,75.3%
CN(Cc1ccc(/C=C/C(=O)NO)cc1)CC12CC3CC(CC(C3)C1)C2,human 5-HT2C receptor,antagonist radioligand binding,,0.05 µM,,inhibition,-5%
